Results collected from several papers.
Compare with care: the assays were run in different laboratories.
Organism: Listeria monocytogenes

CC[C@H](C)[C@H](N)C(=O)N[C@@H](CCCNC(=N)N)C(=O)N[C@H](C(=O)N[C@@H](Cc1c[nH]c2ccccc12)C(=O)N[C@@H](Cc1ccccc1)C(=O)N[C@H](C(=O)N[C@@H](CCCCN)C(=O)N[C@H](C(=O)N[C@@H](CCCNC(=N)N)C(=O)N[C@@H](CCCCN)C(=O)N[C@@H](Cc1c[nH]c2ccccc12)C(=O)N[C@@H](CCCCN)C(=O)N[C@@H](C)C(=O)N[C@H](C(=O)N[C@@H](Cc1ccc(O)cc1)C(=O)N[C@@H](Cc1c[nH]cn1)C(=O)N[C@H](C(N)=O)[C@@H](C)O)[C@@H](C)CC)C(C)C)[C@@H](C)CC)C(C)C
MIC (broth dilution; KCTC 13064): 50 µM

CC(C)C[C@@H](NC(=O)[C@H](C)NC(=O)CNC(=O)[C@@H](NC=O)C(C)C)C(=O)N[C@@H](C)C(=O)N[C@@H](C(=O)N[C@H](C(=O)N[C@@H](C(=O)N[C@@H](Cc1c[nH]c2ccccc12)C(=O)N[C@H](CC(C)C)C(=O)N[C@@H](Cc1ccc2[nH]ccc2c1)C(=O)N[C@H](CC(C)C)C(=O)N[C@@H](Cc1c[nH]c2ccccc12)C(=O)N[C@H](CC(C)C)C(=O)N[C@@H](Cc1c[nH]c2ccccc12)C(=O)NCCO)C(C)C)C(C)C)C(C)C
MIC (broth microdilution; 10403S): 8.5 µM

CC[C@H](C)[C@H](NC(=O)[C@H](CCCCN)NC(=O)[C@@H](NC(=O)[C@H](Cc1ccc(O)cc1)NC(=O)[C@H](CCCCN)NC(=O)[C@H](CCCCN)NC(=O)CNC(=O)[C@H](CCCCN)NC(=O)[C@@H](NC(=O)[C@H](C)NC(=O)[C@H](CC(C)C)NC(=O)[C@H](Cc1c[nH]c2ccccc12)NC(=O)CNC(=O)[C@@H](NC(=O)[C@H](Cc1ccccc1)NC(=O)[C@H](CCCCN)NC(=O)[C@H](CC(C)C)NC(=O)[C@H](Cc1ccccc1)NC(=O)[C@H](C)NC(=O)CNC(=O)[C@@H](N)CCSC)C(C)C)[C@@H](C)O)C(C)C)C(=O)N[C@@H](C)C(=O)N[C@@H](Cc1c[nH]c2ccccc12)C(=O)N[C@@H](CC(=O)O)C(=O)N[C@@H](Cc1c[nH]cn1)C(=O)N[C@@H](CCCCN)C(=O)NCC(=O)N[C@H](C(=O)N[C@H](C(=O)N[C@@H](CCSC)C(=O)N[C@@H](CCCCN)C(=O)N[C@@H](Cc1c[nH]c2ccccc12)C(=O)N[C@@H](CC(C)C)C(=O)N[C@@H](CC(N)=O)C(=O)N[C@@H](C)C(=O)NCC(=O)N[C@@H](CCC(N)=O)C(=O)N[C@H](C(=O)N[C@@H](Cc1ccccc1)C(=O)N[C@H](C(=O)N[C@@H](Cc1c[nH]c2ccccc12)C(=O)N[C@H](C(=O)N[C@@H](Cc1ccc(O)cc1)C(=O)N[C@@H](CCC(=O)O)C(=O)N[C@@H](CCC(N)=O)C(=O)N[C@H](C(=O)N[C@@H](CCCCN)C(=O)N[C@@H](CCCCN)C(=O)N[C@@H](CC(C)C)C(=O)N[C@@H](Cc1c[nH]c2ccccc12)C(=O)N[C@H](C(=O)O)[C@@H](C)O)[C@@H](C)CC)C(C)C)[C@@H](C)O)[C@@H](C)O)[C@@H](C)CC)[C@@H](C)O
MIC (broth microdilution; CECT 4032; 37 °C): 2 µg/mL

CC[C@H](C)[C@H](NC(=O)[C@H](CC(C)C)NC(=O)[C@H](CCCCN)NC(=O)[C@@H](NC(=O)[C@H](C)NC(=O)[C@H](CCC(=O)O)NC(=O)[C@H](Cc1c[nH]cn1)NC(=O)[C@@H](NC(=O)[C@H](CCCCN)NC(=O)[C@H](CCC(N)=O)NC(=O)[C@H](Cc1ccccc1)NC(=O)[C@@H](NC(=O)[C@H](CCCCN)NC(=O)[C@@H](N)CCCCN)C(C)C)[C@@H](C)CC)[C@@H](C)CC)C(N)=O
MIC (CLSI broth microdilution; KCTC 3710; 18 h, 37 °C): 64 µM

CC(C)C[C@@H](NC(=O)[C@H](C)NC(=O)CNC(=O)[C@@H](NC=O)C(C)C)C(=O)N[C@@H](C)C(=O)N[C@@H](C(=O)N[C@H](C(=O)N[C@@H](C(=O)N[C@@H](Cc1c[nH]c2ccccc12)C(=O)N[C@H](CC(C)C)C(=O)N[C@@H](Cc1cccc2[nH]ccc12)C(=O)N[C@H](CC(C)C)C(=O)N[C@@H](Cc1c[nH]c2ccccc12)C(=O)N[C@H](CC(C)C)C(=O)N[C@@H](Cc1c[nH]c2ccccc12)C(=O)NCCO)C(C)C)C(C)C)C(C)C
MIC (broth microdilution; 10403S): 2.1 µM

CC[C@H](C)[C@H](NC(=O)CN)C(=O)NCC(=O)N[C@@H](CCCCN)C(=O)N[C@@H](Cc1ccccc1)C(=O)N[C@@H](CC(C)C)C(=O)N[C@@H](CCCCN)C(=O)N[C@@H](CCCCN)C(=O)N[C@@H](C)C(=O)N[C@@H](CCCCN)C(=O)N[C@@H](CCCCN)C(=O)N[C@@H](Cc1ccccc1)C(=O)NCC(=O)N[C@@H](CCCCN)C(=O)N[C@@H](C)C(=O)N[C@@H](Cc1ccccc1)C(=O)N[C@H](C(=O)N[C@@H](CCCCN)C(=O)N[C@H](C(=O)N[C@@H](CC(C)C)C(=O)N[C@@H](CCCCN)C(=O)N[C@@H](CCCCN)C(N)=O)[C@@H](C)CC)C(C)C
MIC (broth dilution; KCTC 13064): 3.1 µM

CC(C)C[C@@H](NC(=O)[C@H](C)NC(=O)CNC(=O)[C@@H](NC=O)C(C)C)C(=O)N[C@@H](C)C(=O)N[C@@H](C(=O)N[C@H](C(=O)N[C@@H](C(=O)N[C@@H](Cc1c[nH]c2ccccc12)C(=O)N[C@H](CC(C)C)C(=O)N[C@@H](Cc1ccc2cc[nH]c2c1)C(=O)N[C@H](CC(C)C)C(=O)N[C@@H](Cc1c[nH]c2ccccc12)C(=O)N[C@H](CC(C)C)C(=O)N[C@@H](Cc1c[nH]c2ccccc12)C(=O)NCCO)C(C)C)C(C)C)C(C)C
MIC (broth microdilution; 10403S): 2.1 µM

CC(C)C[C@H](NC(=O)[C@H](C)NC(=O)[C@@H](NC(=O)[C@H](CCCNC(=N)N)NC(=O)[C@H](CC(C)C)NC(=O)[C@H](Cc1c[nH]c2ccccc12)NC(=O)[C@@H]1CCCN1C(=O)[C@@H](N)CCCCN)C(C)C)C(=O)N[C@@H](CS)C(=O)N1CCC[C@H]1C(=O)NCC(=O)O
MIC (broth microdilution; NH1): 128 µM

CC(C)C[C@H](NC(=O)[C@@H](NC(=O)[C@H](CCCNC(=N)N)NC(=O)[C@H](CCC(N)=O)NC(=O)[C@H](Cc1ccccc1)NC(=O)[C@H](Cc1ccc(O)cc1)NC(=O)[C@H](CC(N)=O)NC(=O)[C@H](Cc1c[nH]c2ccccc12)NC(=O)[C@@H](NC(=O)[C@H](CCCNC(=N)N)NC(=O)[C@H](CCCCN)NC(=O)[C@@H](N)Cc1ccccc1)C(C)C)C(C)C)C(=O)N[C@H](C(=O)N[C@@H](CCCCN)C(=O)N[C@@H](CCCCN)C(=O)N[C@@H](Cc1ccc(O)cc1)C(=O)N[C@@H](C)C(N)=O)C(C)C
MIC (broth dilution; KCTC 13064): 50 µM

CC[C@H](C)[C@H](NC(=O)[C@H](CC(C)C)NC(=O)[C@H](CCCCN)NC(=O)[C@@H](NC(=O)[C@H](C)NC(=O)[C@H](CCC(=O)O)NC(=O)[C@H](Cc1c[nH]cn1)NC(=O)[C@@H](NC(=O)[C@H](CCCCN)NC(=O)[C@H](CCC(N)=O)NC(=O)[C@H](Cc1ccccc1)NC(=O)[C@@H](N)C(C)C)[C@@H](C)CC)[C@@H](C)CC)C(N)=O
MIC (CLSI broth microdilution; KCTC 3710; 18 h, 37 °C): > 128 µM

A few entries again:
CC(C)C[C@H](NC(=O)[C@@H](NC(=O)[C@H](CCCNC(=N)N)NC(=O)[C@H](CCC(N)=O)NC(=O)[C@H](Cc1ccccc1)NC(=O)[C@H](Cc1ccc(O)cc1)NC(=O)[C@H](CC(N)=O)NC(=O)[C@H](Cc1c[nH]c2ccccc12)NC(=O)[C@@H](NC(=O)[C@H](CCCNC(=N)N)NC(=O)[C@H](CCCCN)NC(=O)[C@@H](N)Cc1ccccc1)C(C)C)C(C)C)C(=O)N[C@H](C(=O)N[C@@H](CCCCN)C(=O)N[C@@H](CCCCN)C(=O)N[C@@H](Cc1ccc(O)cc1)C(=O)N[C@@H](C)C(N)=O)C(C)C
MIC (broth dilution; KCTC 13064): 50 µM
